Published values gathered from unrelated publications.
± gives the spread as reported.
VHL with elongin B/C: von Hippel-Lindau disease tumor suppressor, with elongin B/C (VHL, Homo sapiens, UniProt P40337)
Sequence of UniProt P40337 (whole entry, looked up): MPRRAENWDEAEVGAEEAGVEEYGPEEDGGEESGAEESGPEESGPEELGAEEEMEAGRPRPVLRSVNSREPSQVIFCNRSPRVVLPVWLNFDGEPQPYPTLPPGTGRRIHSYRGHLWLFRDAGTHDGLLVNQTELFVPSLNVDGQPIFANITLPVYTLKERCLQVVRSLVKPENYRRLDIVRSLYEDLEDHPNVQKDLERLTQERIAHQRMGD
IFIT1: Antiviral innate immune response effector IFIT1 (IFIT1, Homo sapiens, UniProt P09914)
Sequence of UniProt P09914 (whole entry, looked up): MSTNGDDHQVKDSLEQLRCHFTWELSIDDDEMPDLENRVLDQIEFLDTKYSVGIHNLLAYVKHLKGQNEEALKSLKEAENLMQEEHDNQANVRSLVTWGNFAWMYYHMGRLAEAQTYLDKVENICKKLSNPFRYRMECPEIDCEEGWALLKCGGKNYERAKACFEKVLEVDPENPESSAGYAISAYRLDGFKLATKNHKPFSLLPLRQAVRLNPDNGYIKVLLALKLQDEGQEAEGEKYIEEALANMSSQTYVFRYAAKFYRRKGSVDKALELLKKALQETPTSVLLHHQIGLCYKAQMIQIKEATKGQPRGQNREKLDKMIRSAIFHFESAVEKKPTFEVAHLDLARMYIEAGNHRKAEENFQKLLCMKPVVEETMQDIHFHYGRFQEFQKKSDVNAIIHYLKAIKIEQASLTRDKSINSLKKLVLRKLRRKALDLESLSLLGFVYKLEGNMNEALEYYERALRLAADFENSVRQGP
Sequence of UniProt Q3UHJ0 (whole entry, looked up): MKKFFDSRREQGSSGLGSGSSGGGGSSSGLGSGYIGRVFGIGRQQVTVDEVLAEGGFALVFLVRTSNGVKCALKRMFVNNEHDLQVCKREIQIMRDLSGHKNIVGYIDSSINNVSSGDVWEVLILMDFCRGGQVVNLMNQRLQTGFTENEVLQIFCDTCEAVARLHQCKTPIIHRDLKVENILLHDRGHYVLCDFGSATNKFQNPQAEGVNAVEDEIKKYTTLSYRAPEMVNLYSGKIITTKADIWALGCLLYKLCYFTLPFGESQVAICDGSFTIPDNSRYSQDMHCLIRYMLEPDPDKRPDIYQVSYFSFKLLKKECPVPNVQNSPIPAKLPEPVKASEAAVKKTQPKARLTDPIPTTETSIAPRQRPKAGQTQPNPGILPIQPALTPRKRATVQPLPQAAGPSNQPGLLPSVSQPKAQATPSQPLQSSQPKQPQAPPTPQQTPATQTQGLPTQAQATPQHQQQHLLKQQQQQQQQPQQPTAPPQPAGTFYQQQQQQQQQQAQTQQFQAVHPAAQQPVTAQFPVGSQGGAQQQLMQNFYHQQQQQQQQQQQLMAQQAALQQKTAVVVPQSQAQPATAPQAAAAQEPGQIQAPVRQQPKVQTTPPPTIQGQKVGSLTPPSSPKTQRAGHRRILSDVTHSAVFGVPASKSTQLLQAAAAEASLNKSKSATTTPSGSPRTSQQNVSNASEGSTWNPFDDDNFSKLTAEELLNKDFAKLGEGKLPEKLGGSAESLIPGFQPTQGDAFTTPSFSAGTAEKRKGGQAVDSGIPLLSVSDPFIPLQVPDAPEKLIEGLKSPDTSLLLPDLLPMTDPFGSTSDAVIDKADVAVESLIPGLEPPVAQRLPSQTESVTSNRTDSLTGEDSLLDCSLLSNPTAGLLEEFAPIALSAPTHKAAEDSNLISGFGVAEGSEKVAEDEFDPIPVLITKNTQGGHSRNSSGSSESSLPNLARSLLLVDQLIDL
Sequence of UniProt Q9SZU7 (whole entry, unmodified, looked up): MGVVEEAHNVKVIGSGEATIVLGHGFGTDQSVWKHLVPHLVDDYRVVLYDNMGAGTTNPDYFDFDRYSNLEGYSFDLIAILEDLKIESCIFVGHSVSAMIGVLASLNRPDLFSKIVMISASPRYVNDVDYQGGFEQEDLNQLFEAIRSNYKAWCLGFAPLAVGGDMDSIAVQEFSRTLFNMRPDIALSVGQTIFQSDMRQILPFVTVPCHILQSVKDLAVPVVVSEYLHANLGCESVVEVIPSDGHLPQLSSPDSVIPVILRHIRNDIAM
Sequence of UniProt Q9SCZ4 (whole entry, unmodified, looked up): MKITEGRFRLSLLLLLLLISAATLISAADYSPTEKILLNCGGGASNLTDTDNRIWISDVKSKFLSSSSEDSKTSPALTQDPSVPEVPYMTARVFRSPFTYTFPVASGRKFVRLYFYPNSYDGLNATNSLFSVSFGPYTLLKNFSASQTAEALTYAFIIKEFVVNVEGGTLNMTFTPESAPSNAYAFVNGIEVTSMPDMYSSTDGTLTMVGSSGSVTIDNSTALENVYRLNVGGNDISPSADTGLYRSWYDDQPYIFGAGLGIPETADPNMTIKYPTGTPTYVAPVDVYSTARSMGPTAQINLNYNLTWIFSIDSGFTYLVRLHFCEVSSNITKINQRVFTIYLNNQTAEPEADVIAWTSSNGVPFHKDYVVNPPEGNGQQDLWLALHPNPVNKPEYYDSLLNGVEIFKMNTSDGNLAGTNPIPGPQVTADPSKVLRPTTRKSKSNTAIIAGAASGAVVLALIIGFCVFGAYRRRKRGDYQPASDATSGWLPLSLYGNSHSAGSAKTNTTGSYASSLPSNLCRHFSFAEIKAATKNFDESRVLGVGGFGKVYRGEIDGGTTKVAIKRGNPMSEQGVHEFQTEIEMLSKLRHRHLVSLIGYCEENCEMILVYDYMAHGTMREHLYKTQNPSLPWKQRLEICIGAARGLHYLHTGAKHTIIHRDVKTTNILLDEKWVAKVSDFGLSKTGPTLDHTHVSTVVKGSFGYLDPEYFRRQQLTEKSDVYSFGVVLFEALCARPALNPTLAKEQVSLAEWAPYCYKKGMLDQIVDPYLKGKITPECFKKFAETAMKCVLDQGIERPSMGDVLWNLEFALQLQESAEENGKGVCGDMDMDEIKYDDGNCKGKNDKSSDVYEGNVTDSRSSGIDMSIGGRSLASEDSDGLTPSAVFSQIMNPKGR
Sequence of UniProt Q96CN7 (whole entry, looked up): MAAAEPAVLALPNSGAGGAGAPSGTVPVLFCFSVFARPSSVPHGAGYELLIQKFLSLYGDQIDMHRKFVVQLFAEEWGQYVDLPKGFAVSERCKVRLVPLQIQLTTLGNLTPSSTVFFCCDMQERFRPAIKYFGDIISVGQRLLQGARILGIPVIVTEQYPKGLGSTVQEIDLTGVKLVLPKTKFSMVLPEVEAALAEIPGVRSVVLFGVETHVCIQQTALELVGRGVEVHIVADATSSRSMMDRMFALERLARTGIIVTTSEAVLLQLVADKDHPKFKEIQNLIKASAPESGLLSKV
Sequence of UniProt P00915 (whole entry, looked up): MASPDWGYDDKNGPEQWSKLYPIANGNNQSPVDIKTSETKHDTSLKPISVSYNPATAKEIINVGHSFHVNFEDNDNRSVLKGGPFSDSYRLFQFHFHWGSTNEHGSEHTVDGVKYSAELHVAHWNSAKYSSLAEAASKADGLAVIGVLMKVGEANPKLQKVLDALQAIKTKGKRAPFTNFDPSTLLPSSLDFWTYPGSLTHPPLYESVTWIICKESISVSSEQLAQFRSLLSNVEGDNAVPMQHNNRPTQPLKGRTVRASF
Sequence of UniProt Q96S37 (whole entry, looked up): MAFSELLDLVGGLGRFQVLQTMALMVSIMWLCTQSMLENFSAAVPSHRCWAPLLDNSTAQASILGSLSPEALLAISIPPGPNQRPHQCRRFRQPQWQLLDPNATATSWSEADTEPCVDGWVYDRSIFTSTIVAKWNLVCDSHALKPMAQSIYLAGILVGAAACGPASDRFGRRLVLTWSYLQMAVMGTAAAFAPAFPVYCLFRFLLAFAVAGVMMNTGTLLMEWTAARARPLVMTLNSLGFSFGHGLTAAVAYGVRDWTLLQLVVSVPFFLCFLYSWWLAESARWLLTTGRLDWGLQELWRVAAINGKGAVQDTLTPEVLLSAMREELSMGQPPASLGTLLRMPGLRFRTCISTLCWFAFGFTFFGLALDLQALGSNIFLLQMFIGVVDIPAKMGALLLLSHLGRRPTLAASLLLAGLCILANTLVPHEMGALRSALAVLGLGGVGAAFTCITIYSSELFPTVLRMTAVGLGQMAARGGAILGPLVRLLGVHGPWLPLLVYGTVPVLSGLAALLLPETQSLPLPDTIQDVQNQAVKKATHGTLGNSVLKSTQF
Sequence of UniProt Q8N5Y8 (whole entry, looked up): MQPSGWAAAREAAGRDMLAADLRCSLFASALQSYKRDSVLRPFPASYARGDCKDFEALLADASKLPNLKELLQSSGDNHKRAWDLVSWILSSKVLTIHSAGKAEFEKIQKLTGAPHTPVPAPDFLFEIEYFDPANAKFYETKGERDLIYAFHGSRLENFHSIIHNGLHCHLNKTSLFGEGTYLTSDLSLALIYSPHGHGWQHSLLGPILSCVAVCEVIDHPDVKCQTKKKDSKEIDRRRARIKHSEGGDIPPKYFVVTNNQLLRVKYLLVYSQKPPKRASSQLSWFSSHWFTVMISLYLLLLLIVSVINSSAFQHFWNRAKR
Sequence of UniProt Q86WV6 (whole entry, unmodified, looked up): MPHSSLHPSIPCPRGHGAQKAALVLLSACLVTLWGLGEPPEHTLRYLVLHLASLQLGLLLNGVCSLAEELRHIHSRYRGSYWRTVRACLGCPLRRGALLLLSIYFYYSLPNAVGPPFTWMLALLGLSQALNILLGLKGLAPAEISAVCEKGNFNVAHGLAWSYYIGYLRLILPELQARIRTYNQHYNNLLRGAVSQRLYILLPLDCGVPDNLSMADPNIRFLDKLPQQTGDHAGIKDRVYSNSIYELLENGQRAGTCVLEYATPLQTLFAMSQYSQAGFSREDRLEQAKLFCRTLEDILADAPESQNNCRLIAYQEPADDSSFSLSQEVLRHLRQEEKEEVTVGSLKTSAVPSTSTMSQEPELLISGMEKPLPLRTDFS
Sequence of UniProt P02754 (whole entry, unmodified, looked up): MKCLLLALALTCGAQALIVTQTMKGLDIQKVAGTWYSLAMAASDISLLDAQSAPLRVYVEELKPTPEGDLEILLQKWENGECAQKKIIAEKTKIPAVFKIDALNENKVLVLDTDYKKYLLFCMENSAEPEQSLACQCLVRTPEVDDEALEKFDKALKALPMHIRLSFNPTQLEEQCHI

SMILES | target | test | test system | setting | Kd [nM]
CNC(=O)c1cc(F)c(-c2nc3cc(C)ccn3c2C[C@H]2CN(C(=O)OC)CCO2)c(F)c1 | P2RX3 (Canis lupus, UniProt A0A8I3S575) | binding, ITC |  |  | 100
C#CCN1CCN(c2nc(N3CCN(c4ccc(Cc5cc(CNC(=O)[C@@H]6C[C@@H](O)CN6C(=O)[C@@H](NC(=O)C6(F)CC6)C(C)(C)C)c(O)cc5-c5scnc5C)cc4)CC3)nc(N3CCN(C(=O)C4CC4)C3)n2)CC1=O | VHL with elongin B/C | binary binding, SPR |  |  | 185
NS(=O)(=O)c1cc(C(=O)NCCCC(=O)O)c(NC2CCCCC2)cc1Cl | Carbonic anhydrase 1 (CA1, Homo sapiens, UniProt P00915) |  |  | pH 7 | > 200000
CN(C)c1nc(O)c2c(n1)n([C@@H]1O[C@H](COP(=O)(O)OP(=O)([O-])OP(=O)(O)OC[C@H]3O[C@@H](n4cnc5c(N)ncnc54)[C@H](O)[C@@H]3OP(=O)(O)OC[C@H]3O[C@@H](n4cnc5c(=O)[nH]c(N)nc54)[C@H](O)[C@@H]3O)[C@@H](O)[C@H]1O)c[n+]2C | IFIT1 | binding, microscale thermophoresis |  | pH 7.5, 70 nt capped RNA | 23
COc1ccc(C(=O)NO)cc1NC(=O)c1ccc(-c2ccccc2)cc1 | Isochorismatase domain-containing protein 1 (Homo sapiens, UniProt Q96CN7) | inhibitor, competition pulldown | SW620 and MV4-11 lysate | 1 h | > 30200
Nc1nc2c(ncn2[C@@H]2O[C@H](COP(=O)(O)O[C@H]3[C@@H](O)[C@H](n4ccc(=O)[nH]c4=O)O[C@@H]3COP(=O)(O)OP(=O)(O)O[C@H]3O[C@H](CO)[C@@H](O)[C@H](O)[C@H]3O)[C@@H](O)[C@H]2O)c(=O)[nH]1 | IFIT1 | binding, microscale thermophoresis |  | pH 7.5, 70 nt capped RNA | 8200
C=CC(=O)N1CC2(CCN(c3nc(OC4CCN(CCCOC)CC4)nc4c(OCC(F)(F)F)c(-c5c(C)ccc6[nH]ncc56)c(C5CC5)cc34)CC2)C1 | GTPase KRas, GDP-bound (KRAS, Homo sapiens, UniProt P01116, G12D) | binding, surface plasmon resonance |  |  | 20400 ± 680
C[n+]1cn([C@@H]2O[C@H](COP(=O)(O)OP(=O)([O-])OP(=O)(O)OC[C@H]3O[C@@H](n4cnc5c(N)ncnc54)[C@H](O)[C@@H]3OP(=O)(O)OC[C@H]3O[C@@H](n4cnc5c(=O)[nH]c(N)nc54)[C@H](O)[C@@H]3O)[C@@H](O)[C@H]2O)c2nc(N)nc(O)c21 | IFIT1 | binding, microscale thermophoresis |  | pH 7.5, 70 nt capped RNA | 100
CC(=O)NCC1CCCCN1c1nc(NCC2Cc3ccccc3O2)nc(N2CC3C(CCOc4cc(-c5scnc5C)ccc4CNC(=O)C4CC(O)CN4C(=O)C(NC(=O)C4(F)CC4)C(C)(C)C)C3C2)n1 (centres unmarked) | VHL with elongin B/C | binary binding, SPR |  |  | 202
Nc1nc(O)c2ncn([C@H]3C[C@@H]4OP(=O)(O)OC[C@@H]5C[C@@H](OP(=O)(O)OC[C@H]4O3)[C@H](n3cnc4c(N)ncnc43)O5)c2n1 | Stimulator of interferon genes protein (STING1, Homo sapiens, UniProt Q86WV6, R220H) | binding |  |  | 42900 ± 35100
Cc1cc2nc3c(=O)[nH]c(=O)nc-3n(C[C@H](O)[C@H](O)[C@H](O)COP(=O)(O)OP(=O)(O)OC[C@H]3O[C@@H](n4cnc5c(N)ncnc54)[C@H](O)[C@@H]3OP(=O)(O)OC[C@H]3O[C@@H](n4cnc5c(=O)[nH]c(N)nc54)[C@H](O)[C@@H]3O)c2cc1C | IFIT1 | binding, microscale thermophoresis |  | pH 7.5, 70 nt capped RNA | 80
NCCCC[C@H](NC(=O)[C@H](C/C=C\C[C@H](NC(=O)[C@@H]1CCCN1)C(=O)N[C@@H](CCCCN)C(=O)NCCCN)NC(=O)[C@@H]1CCCN1)C(=O)NCCCN | CUG–CAG duplex RNA | SPR |  |  | 325
[3H]C([3H])([3H])Oc1ccccc1-c1cnn2ccc(NC[C@@H]3CCCN3C(=O)OC(C)(C)C)nc12 | AP2-associated protein kinase 1 (Mus musculus, UniProt Q3UHJ0) | binding, radioligand binding |  |  | 0.467 ± 0.056
Cn1ncc2cc(-c3cncc(Cl)c3N3CCC4(CCNC4=O)CC3)ccc21 | Protein mono-ADP-ribosyltransferase PARP16 (PARP16, Homo sapiens, UniProt Q8N5Y8) | SILAC displacement | LS174T-L5 cell lysate |  | 18000
C[n+]1cn([C@@H]2O[C@H](COP(=O)(O)OP(=O)([O-])OP(=O)(O)OC[C@H]3O[C@@H](n4cnc5c(=O)[nH]c(N)nc54)[C@H](O)[C@@H]3OP(=O)(O)OC[C@H]3O[C@@H](n4cnc5c(=O)[nH]c(N)nc54)[C@H](O)[C@@H]3O)[C@@H](O)[C@H]2O)c2nc(N)nc(O)c21 | IFIT1 | binding, microscale thermophoresis |  | pH 7.5 | 23000
O=C(O)C1OC(OC2C(C(=O)O)OC(OC3C(C(=O)O)OC(OC4C(C(=O)O)OC(O)C(O)C4O)C(O)C3O)C(O)C2O)C(O)C(O)C1O (centres unmarked) | Beta-lactoglobulin (LGB, Bos taurus, UniProt P02754, A134V/G80D) | isothermal titration calorimetry |  | pH 2.65, 37 °C, 50 mM KH2PO4 | 466000
Cc1cccc2c1N(C(=O)n1ccnn1)CC2 | KAI2 (Arabidopsis thaliana, UniProt Q9SZU7, A219S) | ITC |  | A219S mutant, mean | 14000
C[n+]1cn([C@@H]2O[C@H](COP(=O)(O)OP(=O)([O-])OP(=O)(O)OC[C@H]3O[C@@H](n4ccc(N)nc4=O)[C@H](O)[C@@H]3OP(=O)(O)OC[C@H]3O[C@@H](n4cnc5c(=O)[nH]c(N)nc54)[C@H](O)[C@@H]3O)[C@@H](O)[C@H]2O)c2nc(N)nc(O)c21 | IFIT1 | binding, microscale thermophoresis |  | pH 7.5 | 13000
O=C(NS(=O)(=O)c1cccs1)c1cc2ccccc2n1Cc1ccc(Br)c2ccccc12 | Solute carrier family 22 member 12 (SLC22A12, Homo sapiens, UniProt Q96S37) | binding, SPR |  |  | 2840
CC(=O)NCC1CCCCN1c1nc(N2CCN(c3nnc[nH]3)CC2)nc(N2CC3C(CCOc4cc(-c5scnc5C)ccc4CNC(=O)[C@@H]4C[C@@H](O)CN4C(=O)[C@@H](NC(=O)C4(F)CC4)C(C)(C)C)C3C2)n1 (some centres unmarked) | VHL with elongin B/C | binary binding, SPR |  |  | 24
CC(=O)N[C@H]1C(O)O[C@H](CO)[C@@H](O)[C@@H]1O[C@H](C)C(=O)N[C@@H](C)C(=O)N[C@H](CCC(=O)O)C(N)=O (some centres unmarked) | Nucleotide-binding oligomerization domain-containing protein 2 (NOD2, Homo sapiens, UniProt Q9HC29) | binding, backscattering interferometry | HEK293T cell vesicles |  | 3 to 30
CC(=O)N1c2ccc(-c3ccc(CNC(=O)c4cn5cc(-c6cnc(N)nc6)nc(N6CCOCC6)c5n4)cc3)cc2CC[C@@H]1C | Bromodomain-containing protein 2, BD2 (BRD2, Homo sapiens, UniProt P25440) | binding, competition with immobilised ligand |  |  | 1.6
CCc1nc2cc3ccccc3cc2cc1C(=O)N[C@@H](CCCCN)C(=O)N[C@@H](C/C=C\C[C@H](NC(=O)[C@H](CCCCN)NC(=O)c1cc2cc3ccccc3cc2nc1CC)C(=O)N1CCC[C@H]1C(=O)NCCCN)C(=O)N1CCC[C@H]1C(=O)NCCCN | CUG–CAG duplex RNA | SPR |  |  | 99.9
CO[C@@H]1[C@H](OP(=O)(O)OC[C@H]2O[C@@H](n3cnc4c(=O)[nH]c(N)nc43)[C@H](O)[C@@H]2O)[C@@H](COP(=O)(O)OP(=O)([O-])OP(=O)(O)OC[C@H]2O[C@@H](n3c[n+](C)c4c(O)nc(N)nc43)[C@H](O)[C@@H]2O)O[C@H]1n1cnc2c(N)ncnc21 | IFIT1 | microscale thermophoresis |  | pH 7.5, added: structured cap III RNA, 70 nt | 520
CC(=O)c1cnc2ccc(-c3cc(Cl)c(O)c(Cl)c3)nc2c1N[C@H]1CC[C@H](CN(C)C)CC1 | Receptor-like protein kinase FERONIA (FER, Arabidopsis thaliana, UniProt Q9SCZ4, Y610A) | binding, SPR |  | mutant protein | 1800
CCc1nc2cc3ccccc3cc2cc1C(=O)N1CCC[C@H]1C(=O)N[C@@H](C/C=C\C[C@H](NC(=O)[C@@H]1CCCN1C(=O)c1cc2cc3ccccc3cc2nc1CC)C(=O)N[C@@H](CCCCN)C(=O)NCCCN)C(=O)N[C@@H](CCCCN)C(=O)NCCCN | CUG–CAG duplex RNA | SPR |  |  | 56

Some of these lines once more:
SMILES | target | test | test system | setting | Kd [nM]
CCc1nc2cc3ccccc3cc2cc1C(=O)N1CCC[C@H]1C(=O)N[C@@H](C/C=C\C[C@H](NC(=O)[C@@H]1CCCN1C(=O)c1cc2cc3ccccc3cc2nc1CC)C(=O)N[C@@H](CCCCN)C(=O)NCCCN)C(=O)N[C@@H](CCCCN)C(=O)NCCCN | CUG–CAG duplex RNA | SPR |  |  | 56
